Measurements pooled from the literature.
Numbered parts are unrelated; each lists some results of a single study. Positions count from the first letter of the parent shown.

Series 1
Target: RNA binding protein fox-1 homolog 2, RRM domain, GST-SBP tag (RBFOX2, Homo sapiens, UniProt O43251-10, residues 100-194)
Technique: RNA Bind-n-Seq
Form: RNA
Matrix: in vitro
Concentration: 365 nM
Setting: natural RNA segment, single round, ends assumed
Relative to: no-protein control
Direction: higher = stronger binding
Constant ends, left off below: GGGAGUUCUACAGUCCGACGAUC … UGGAAUUCUCGGGUGCCAA
Construct (chain): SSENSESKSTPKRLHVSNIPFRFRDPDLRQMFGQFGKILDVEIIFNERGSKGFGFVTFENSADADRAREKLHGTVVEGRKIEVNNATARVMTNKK
Strand	RBNS enrichment (R)
GAUGAGUCCUUCCCUGCCUGCAAGAUUGAGUUCUGAAGAGCCGCCCUCCCUUCCCCAAGGAUCCACUCCCCCAGCUCCUUUAGAGAAUGGCUACUGCUGAGUCCUUUGGG	1.55
UCUCACAGAAUGCUCAUCAUUCUCCUUCAGCUGUUGCCAUUUUCUUUCAAUCUGAAAAUUAAAGACAUUGGAGAGAAAGGCUAACCACUUAAUGGUGCUUAAAAAUCGGG	0.394
GUUUAAUCUUUUUUAAUGAAAAAAAAUCAUGUUUAAAAUGGCAAAAGCCCAUCUUAUACACUUUUAUAUAGCUGCAAAAAAUUUAUAUCUGUACAGAUCUAACACUACGA	0.399
AUCAACCACAACAUAGCAGGCAUUCCCUUGCAGCUGCAGUACAGUAGCAGUGUCCUUUUCUGAGGAAGGAAGUCUUAAACCCUUUCCCCCCACCCCCUGGGAUGACUGCC	0.299
GUUGGAUAUGUGGUUCCUGAUGCAUUUUGACUUGUCUUUUUAAAUGCUUUAUCUUUUUCUUUAAAGAUUUAUUUCAAUAAAACUAAUUGGGACCACCCGUAUUUCAGUAG	0.849
AGCUUAUGAUAUCCAACAUUAUUAUAGUUGAUGAGUUAGUAAAUUCCAAAAAAAAAAGAUGAUUUUAUAUGUAUGACAUAAAAAAAAUCUUUGUAAAGUGCGCAAGUGCA	1.21
AGCUUCUGUGUUGGUCCUUUGUAGAGAUGGAAGUGGAGCCAUCCUGCUGUGAACAGUUAUGAACCAGGGGAGGCUGCUGCAUGUGCCUAUUAUGUUGGCAGUGGGUGGCA	12.3
CCAAUGUCCCCAGGGGGCAACACCCCUCUCUUGGACUUCAGGGUCAAGAGAAUCUCUGCUGGCUACCCCAGGACUUCUCAUUAUAGAUUUCCUGGAGCACGCAGCAGAAA	0.203
AUCUCUUCACUGUUUCUUUUUUAGGACUCCCUUUGCAAGGAGCAACUGUAAUAUUGUGGGACUAACAUGGAUGUAACGUUUAAAAAAAAGAUCAGGAUUAUUAGUAACAA	1.47
GAGAGAGAUCUACCCAUUAGAAUUGAUUUAGGUGCCCAUUGCAUCUUUUGUACUAUGGAGUUGUUUACAGUAAGCAUGACUGAACAAGCACUAACAUCCUCCUACACCGG	48.3
AGGAAAAGUUGAGGGGGACUUAGGAAUAAUUUCCUUAUAAAAAGGAGCCUUAUUCUGUACCCCACUUUCCUCUUUUUAAUGGUACACGGUGGUGAUAUUUUUCAUCCCCA	0.254
UAUCACACCUUUACAGAAUAACAUGAUGGCAAUAUACAUACGUGAUAUUGUUAGGUGGAAUAACUUAGAAUAAAAUGAGAAUUCUUGAGUUAUAUUUUGUACUAUGGUUU	0.409

Series 2
Target: Histone acetyltransferase KAT6A, both winged helices, GST fusion (KAT6A, Homo sapiens, UniProt Q92794, residues 1-181)
Technique: protein binding microarray
Form: double-stranded DNA, one strand shown
Matrix: in vitro
Concentration: not given
Setting: 8-mer, flanks averaged, mean of 2 arrays, mostly near background
Relative to: not given
Direction: higher = stronger binding
Target sequence (chain): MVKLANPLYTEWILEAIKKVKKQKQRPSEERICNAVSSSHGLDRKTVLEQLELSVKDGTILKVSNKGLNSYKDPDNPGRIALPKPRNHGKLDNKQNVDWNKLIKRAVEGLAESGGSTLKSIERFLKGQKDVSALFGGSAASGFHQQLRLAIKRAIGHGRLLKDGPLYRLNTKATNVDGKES
Strand	E-score
GCCAAGAA	-0.101
GTAGCGAA	0.00777
ACTATTGG	-0.129
GAACATCC	0.139
AAAGTTTG	-0.0812
ATCCATTG	-0.0784
GCACTTGA	0.0722
CAGATCTG	-0.201
TAATCTCA	-0.0951
ACTCCGAA	0.0488
CATGTGTA	0.00573
CCTCACAA	0.0152
CGCAACTC	0.114
GGTTCCTA	-0.0949
CAAGAAGC	0.109
CAGTCACC	-0.0933
AGTCATTG	-0.295
AAAAGGGA	-0.266
GGACCCAA	-0.0684
AATAGGCA	-0.0736

Series 3
Target: ATF1, bZIP domain (human)
Technique: DHFR protein complementation
Matrix: yeast
Setting: single substitutions, most at no-binding floor
Relative to: wild-type JUN-FOS pair
Direction: higher = stronger binding
Parent: JUN, bZIP domain (human); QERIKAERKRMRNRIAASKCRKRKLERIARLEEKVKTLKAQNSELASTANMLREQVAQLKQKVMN; partner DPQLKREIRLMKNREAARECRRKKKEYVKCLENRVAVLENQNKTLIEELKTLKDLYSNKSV
Substitution	binding fitness [natural log]
Q55H	-1.52
K36Q	-1.52
A46H	-1.53
K36W	-1.49
N42I	-1.53
K34V	-1.53
L59H	-1.53
M51A	-1.49
R53G	-1.55
S47C	-1.4
L45Y	-1.49
E44V	-1.51
T37F	-1.54
S47E	-1.5
V56P	-1.51
K39I	-1.47
S47V	-1.5
Q55D	-1.64
E32F	-1.46

Series 4
Target: Centromere-binding protein 1, full length, N-terminal tag (CBF1, Saccharomyces cerevisiae, UniProt P17106, residues 1-351)
Chain of UniProt P17106 (whole entry, looked up): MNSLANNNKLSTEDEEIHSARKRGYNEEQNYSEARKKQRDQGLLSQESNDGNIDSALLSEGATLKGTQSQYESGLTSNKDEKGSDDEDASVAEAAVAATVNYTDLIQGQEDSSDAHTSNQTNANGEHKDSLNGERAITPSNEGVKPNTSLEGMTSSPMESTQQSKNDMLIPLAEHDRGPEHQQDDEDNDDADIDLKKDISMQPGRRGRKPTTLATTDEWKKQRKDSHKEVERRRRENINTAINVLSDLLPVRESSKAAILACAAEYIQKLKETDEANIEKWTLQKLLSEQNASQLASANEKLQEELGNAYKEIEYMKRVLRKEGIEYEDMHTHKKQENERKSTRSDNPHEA
Technique: protein-binding microarray
Form: double-stranded DNA, one strand shown
Matrix: in vitro
Concentration: 0.8 µM
Setting: whole 60-bp probe, no competitor
Direction: higher = stronger binding
Constant ends, left off below: … GTCTTGATTCGCTTGACGCTGCTG
Strand	fluorescence intensity
GAAATATTCTTTCATAACGTGAAACATAAAGTTTAG	567 a.u.
GAAAAGCAACCACACCACATGAGCTCACAACCGTAG	544 a.u.
GAAAAGCATTATTCACACCTGATAAGGATTTTCTAG	773 a.u.
CTATTTCTTAACGGTGACGAAGGATCACCATACTTC	587 a.u.
TGTACGAAGCTATCACGCATGCTTATAGTAGTTAGG	590 a.u.
GAAGCTAAGAGGGCACTTGGTCACAACTACAGATAG	587 a.u.
CTATCTTGTATTCATGTGATTGTAAATAATATTTTC	1460 a.u.
CTACCAGTTATGATTGACGTCATTCTGAGTTACTTC	514 a.u.
CTAAGGCAATTCAATCAGGTGGTTATACTTGTTTTC	913 a.u.
CTATGCGTTGCTGGTGAGGTGGCGTGGACGGTTTTC	885 a.u.
CTACTTACAGTACATCACGCTGCAATAGATCTATTC	682 a.u.
CTACGATGCTTACTCAAGGTGACACAATCGTTATTC	515 a.u.
GAAGTTATCATTTACCACGAGGTTGACTGTCTTTAG	625 a.u.
CTAAAGCATCGCCGTGATGTGTTATATATTGCATTC	570 a.u.
TGTACGAAGCTATCTGATGTAGGTATAGTAGTTAGG	525 a.u.
CTACTTTAAAAATACCACGCCATTTTAGTAGGCTTC	513 a.u.
GAATTCCAATTTGTTGTTATTCCCTATGCCGCATAG	489 a.u.
GAAAGTTTTTCATATAAGATCACGTTGTTTATATAG	4420 a.u.
CTAGAGTGCGCGGTATACGTGCGGCCCTAAACGTTC	491 a.u.
GAATGAATGCCGGGCCGCGTGGCGTCTGTAGCTTAG	708 a.u.
GAAGCTCCACCTCATCACCTGAAAAATCTGGAATAG	566 a.u.
CTAACGTGTTAAAATGACATCAGGTATCAATGCTTC	502 a.u.
CTATTCGTGGATGGTCATGCGTATTTGAAAACATTC	875 a.u.
GAAAAGGATTTCATAAACGTGTGGTTCACGATATAG	530 a.u.
GAAAGAAACGGCGGGCGGGTGATAATGCGGCGATAG	531 a.u.

Repeated from above (series 3):
Substitution	binding fitness [natural log]
A46H	-1.53
K36W	-1.49
N42I	-1.53
K34V	-1.53
L59H	-1.53
M51A	-1.49
R53G	-1.55
S47C	-1.4
